Assay results gathered from unrelated publications.
Numbered parts are unrelated; each lists some results of a single study. Substitutions count along the parent as printed.

Set 1 — technique: RNA Bind-n-Seq; molecule type: RNA; matrix: in vitro; tested at: not given; baseline: input RNA pool; reading: higher = stronger binding
Target: RING finger protein unkempt homolog, zinc fingers 1-6, GST-SBP tag (UNK, Homo sapiens, UniProt Q9C0B0, residues 30-357)
Notes: RNA with constant flanks, human and mouse sites, ends assumed
Construct (chain): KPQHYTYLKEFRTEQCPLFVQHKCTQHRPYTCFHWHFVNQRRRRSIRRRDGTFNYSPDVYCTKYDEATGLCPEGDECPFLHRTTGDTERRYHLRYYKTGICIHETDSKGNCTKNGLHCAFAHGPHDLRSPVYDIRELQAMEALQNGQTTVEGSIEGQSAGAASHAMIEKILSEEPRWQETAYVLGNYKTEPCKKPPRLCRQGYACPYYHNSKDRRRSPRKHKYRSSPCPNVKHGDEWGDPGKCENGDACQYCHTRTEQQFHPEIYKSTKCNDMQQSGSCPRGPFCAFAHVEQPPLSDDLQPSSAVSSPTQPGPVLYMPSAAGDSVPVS
Sequence | bound/input enrichment [ratio]
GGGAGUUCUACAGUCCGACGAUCCCACAAGCAGAGGAAGCGUUAGCGAAGAGGAGAGGAAGGAACAGUCCAAACGGGAACCUCAUUAGGAUGCUUGUUCUUUUCUUUCUGGAAAGUGAGUUACAUGAACAUGCAGCCUACUUGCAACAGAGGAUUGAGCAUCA | 0.23
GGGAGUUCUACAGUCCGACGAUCGGCCGCCGCCAGACCCCCGCUUCCAUGCGGUUCGGGUCCAAAAUGAUGCCGAUGUUCCUGACAGUUUACCUCAGUAACAGUGAGCAGCACUUCACAGAAGUUCCUGUUACCCCAGAGACACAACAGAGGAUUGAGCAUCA | 0.155
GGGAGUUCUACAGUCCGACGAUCGGAAAUAUUCUGUUGACAUCGCUGGAAGUUCACAAUGAAAUGAAUGAGGUCUCAGGCGGCAUUGGCGAUACCAGGAAUUCAGCAAUAUCCUUUGACAACUCAGGAAUCCAGUACAGGAAACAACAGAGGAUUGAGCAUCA | 0.148
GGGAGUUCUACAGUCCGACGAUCCCCAGCAGCGGACUCCGAGACCAGUAGACCUCGGCGAACCCUUGCUCUCGACCACCCACCCACUUUCGGAACCAUGGCCGCAGUGGCAGCAGCCUCGGCAGAACUGCUCAUCAUCGGCUGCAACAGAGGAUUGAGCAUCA | 0.133
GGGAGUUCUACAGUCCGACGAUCGCUGAUUAUCAUGUCUGUAAUAGACCCGUGCAUGCAGCCUUCCCUCUGCCUCCCCCUCAUCUCCUCACAGGUGGGUUAUUUACAUUACAAACUUUUAACUCAUUUUUGAUCUAGGACAUGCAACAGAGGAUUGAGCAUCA | 0.385
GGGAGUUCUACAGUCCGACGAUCCCAUGUUUAUUAGCUGGAGGUUUAUUAACAUAUAAAUCUCCUGCUACCUCACCCAUUAGUAGUAAUUCUCACAGGUCACUGGAUGGUUUAAGCAGAACUCAGGGUGAAAGUAUAUCAGAACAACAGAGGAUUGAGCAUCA | 0.55
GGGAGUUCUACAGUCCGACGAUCUUAUGUGACCUAAAACUUUUUUAAAUGAAAAAAAAAUGUGGUUUUUUUUUUGGUUUUAAUGGUGUUAUGUGGUCUGUGUAUUAAUUAUUUACUUUUCCGUUGAUACAACAUGAAGGUCUUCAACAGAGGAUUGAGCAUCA | 0.332
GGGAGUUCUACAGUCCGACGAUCGUCAUUGAUGUCCUUCACCCCGGGAAGGCGACAGUGCCUAAGACAGAAAUUCGGGAAAAACUAGCCAAAAUGUACAAGACCACACCGGAUGUCAUCUUUGUAUUUGGAUUCAGAACUCAUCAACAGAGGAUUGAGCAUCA | 0.621
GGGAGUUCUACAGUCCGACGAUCGUACGAGUUGAAUGGAUCGCAGCAGUUACCAUUGCUGCUGGGACAGCUGCAAUUGGUUAUCUAGCUUACAAAAGAUUUUAUGUUAAAGAUCAUCGAAAUAAAGCUAUGAUAAACCUUCACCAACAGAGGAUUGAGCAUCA | 0.161
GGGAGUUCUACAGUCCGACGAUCAAGAUCCUUUCGGUAAAUGGCCAAGACCUAAAGAACCUGCUGCACCAGGAUGCUGUAGACCUCUUUCGUAAUGCAGGCUAUGCUGUGUCUCUGAGAGUGCAGCACAGGUUACAGGUGCAGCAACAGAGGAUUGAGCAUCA | 0.0652
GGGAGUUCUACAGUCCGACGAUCAGUUUCCAGUGAAAGUAAUAUGUAGUGCUUUUAUGAUAUUUGUGUGCAAUAUCCCCUCUUCUAUCAAGGAUAUUUGAUGUAAAGGAAAAACAAACAAACAAACAACAGAAACUCAGUUCCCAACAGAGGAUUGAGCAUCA | 0.125

Set 2 — target: CCND1, cyclin fold, Cln2 fusion (human); technique: yeast growth competition, sequencing; matrix: yeast; notes: weak parent motif; baseline: not given; reading: higher = stronger binding
Starting sequence: GMNC docking peptide (human); KNAKRNLSSEFAN; partner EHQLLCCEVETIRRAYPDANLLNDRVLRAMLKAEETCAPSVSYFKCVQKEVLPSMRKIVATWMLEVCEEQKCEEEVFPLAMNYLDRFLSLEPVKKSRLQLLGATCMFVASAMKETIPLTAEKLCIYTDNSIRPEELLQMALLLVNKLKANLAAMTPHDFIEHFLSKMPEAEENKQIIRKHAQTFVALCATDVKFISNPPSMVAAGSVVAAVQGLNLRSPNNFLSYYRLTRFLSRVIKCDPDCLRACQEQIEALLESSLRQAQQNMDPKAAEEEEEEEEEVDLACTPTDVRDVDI
Variant | normalised enrichment score
KNAKLNLSSEFAN [R5L] | 0.108
KQAKRNLSSEFAN [N2Q] | 0.493
KNAKRNLFSEFAN [S8F] | 0.646
KNAKRQLSSEFAN [N6Q] | 0.17
KNNKRNLSSEFAN [A3N] | 0.369
KNAKGNLSSEFAN [R5G] | 0.376
KNAWRNLSSEFAN [K4W] | 0.327
KNAKRNLSSENAN [F11N] | -0.342
KNAKRNLSMEFAN [S9M] | 0.522

Set 3 — technique: universal PBM; molecule type: double-stranded DNA, one strand shown; matrix: in vitro; tested at: not given; reading: higher = stronger binding
Target: Sal-like protein 4, full length isoform B (SALL4, Homo sapiens, UniProt Q9UJQ4-2, residues 1-616)
Notes: 8-mer, flanks averaged, mean of replicates
Sequence | E-score
AGTAACAG | 0.157
CTACCTCC | -0.073
CGTCTAAC | 0.00593
GCAGTCAA | -0.154
GAGATTAA | 0.13
CCATAGAA | 0.0707
ACGCGGTA | -0.169
CAAGTACC | 0.0353
AGTCATCA | -0.0415

Mixed results
Molecule | target | assay | system | conditions | how to read | endpoint | value
PhoQ, residues 284 288 289 292 302 303 HSYLQF | PhoP, residues 12 14 15 18 19 LWHVM (Escherichia coli, UniProt P23836) | Sort-seq, refers to: YFP reporter | E. coli | PhoQ-PhoP variant library, added: 10 µM Mg2+ | baseline: high Mg2+ state, higher = stronger signaling | fold induction | 22

A few entries again (set 3):
Sequence | E-score
CGTCTAAC | 0.00593
GCAGTCAA | -0.154
